Measurements collected from several papers.
Protocols differ between the studies behind these lines. ± gives the spread as reported.
Target: Cytochrome P450 3A4 (CYP3A4, Homo sapiens, UniProt P08684)
Chain of UniProt P08684 (whole entry, looked up): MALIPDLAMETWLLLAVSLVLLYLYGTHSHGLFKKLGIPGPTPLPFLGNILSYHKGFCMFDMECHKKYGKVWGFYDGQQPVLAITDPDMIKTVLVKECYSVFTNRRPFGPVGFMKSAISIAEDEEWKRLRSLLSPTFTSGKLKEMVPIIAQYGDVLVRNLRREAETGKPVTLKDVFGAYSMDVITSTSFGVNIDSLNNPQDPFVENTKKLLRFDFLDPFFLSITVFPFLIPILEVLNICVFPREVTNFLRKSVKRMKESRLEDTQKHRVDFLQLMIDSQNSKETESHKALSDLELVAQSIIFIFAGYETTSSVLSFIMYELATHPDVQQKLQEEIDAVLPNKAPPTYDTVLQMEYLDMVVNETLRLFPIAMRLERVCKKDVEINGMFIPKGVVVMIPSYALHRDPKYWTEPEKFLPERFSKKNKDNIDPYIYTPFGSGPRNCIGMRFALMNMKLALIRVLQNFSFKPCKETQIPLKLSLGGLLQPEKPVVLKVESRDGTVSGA
Action: inhibitor

| Structure (SMILES) | test | test system | conditions | IC50 [µM] |
| --- | --- | --- | --- | --- |
| c1ccc(C2(CCNC3CCC4(SCCS4)c4ccccc43)CCOC3(CCCC3)C2)nc1 (stereo not shown) | enzyme activity | human, liver microsomes | testosterone probe | 4.84 |
| C[C@@H](c1ccn(Cc2ccc(OC(F)(F)F)cc2)n1)[C@](O)(Cn1cnnn1)c1ccc(F)cc1F | enzyme activity | human, liver microsomes | midazolam probe | 19.8 |
| O=C(NC12CC3CC(CC(C3)C1)C2)c1cc2cc(Cl)ccc2[nH]1 | enzyme activity |  | with: VR substrate | > 50 |
| N=C(N)c1cccc(C[C@H](NS(=O)(=O)c2cccc(-c3ccc(Cl)cc3Cl)c2)C(=O)N2CCC(CCN)CC2)c1 | enzyme activity, fluorometric | human liver microsomes | 15 min, 37 °C | 0.39 ± 0.09 |
| C[C@@H](c1ccn(Cc2ccc(I)cc2)n1)[C@](O)(Cn1cnnn1)c1ccc(F)cc1F | enzyme activity | human, liver microsomes | midazolam probe | 8.04 |
| CC(C)(O)c1ccccc1CC[C@H](c1cccc(/C=C/c2ccc3ccc(Cl)cc3n2)c1)[S+]([O-])CC1(CC(=O)O)CC1 (stereo partly shown) |  | human liver microsomes | with: midazolam | 9.33 |
| COc1ccc2nc(C)cc(OCC(=O)Nc3ccccc3OC)c2c1 | enzyme activity |  | with: VG substrate | 3.4 |
| C=CCc1cc2c(c(OC)c1OC)OCO2 | enzyme activity, fluorescence |  |  | 8.9 to 9.2 |
| CCc1ccc([C@@H]2C[C@H](C(F)(F)F)n3ncc(C(=O)NCc4ccc(OC)cc4)c3N2)cc1 | enzyme activity |  | with: VG substrate | 5 |
| COC(=O)c1ccc2c(c1)NC(=O)/C2=C(\Nc1ccc2c(c1)CCN2C(=O)CN1CCOCC1)c1ccccc1 |  | recombinant enzyme | 10 min, with: midazolam 2 µM | 56.8 |
| C[C@@H](c1ccn(Cc2ccc(Cl)cc2Cl)n1)[C@](O)(Cn1cnnn1)c1ccc(F)cc1F | enzyme activity | human, liver microsomes | midazolam probe | 2.9 |
| Cc1ccc2nc(C(F)(F)F)c(C(=O)NCc3cccc(Cl)c3)n2c1 | enzyme activity |  | with: VG substrate | 3.5 |
| C[C@H](NCc1ccc(-c2ccc(C(F)(F)F)cc2)cc1)C(N)=O | enzyme activity, luciferase |  | pH 7.4 | > 10 |

Some of these lines once more:
| Structure (SMILES) | test | test system | conditions | IC50 [µM] |
| --- | --- | --- | --- | --- |
| COC(=O)c1ccc2c(c1)NC(=O)/C2=C(\Nc1ccc2c(c1)CCN2C(=O)CN1CCOCC1)c1ccccc1 |  | recombinant enzyme | 10 min, with: midazolam 2 µM | 56.8 |
| C[C@@H](c1ccn(Cc2ccc(Cl)cc2Cl)n1)[C@](O)(Cn1cnnn1)c1ccc(F)cc1F | enzyme activity | human, liver microsomes | midazolam probe | 2.9 |
